{"data": "Published values from different studies", "B1": "enzyme A497K (Streptomyces platensis, UniProt A0A0A0V031); chain MQHTTIGDVLREHRRSHPGRTALVDGPVRLTWPELDDRVNRLAGSLAASGIGRGDRIMWLGQNSFRVYELIAAAGKLGAMVCVGYWRWAPPEMEFALRDFDPHLVVWQHQEIHETVARTREALGSDDTARWLRHDSAPQDPDGYEAFLAAGGLADPDLDIDPDSPVLVLYTAAMSGRQCGSLLSHTNLIAMATAAAWLGDIDHTTAFLNSGPMFHIGNHQFWGMPTLLMAGKNVIVRRVVAEEVRDLLVAEECTHAFLMPPTVAEIVRLNRDTGHDLSRLRATVAPHLWEGMATTDTSRFTRSGAAAGRGYGQTELSGFAVTAAYGGPAAGNAGRPGPGLTVRVLDTAGRECAVGEAGEICARGTVVHRGYWNRDEVNAHRFRSGWWHTTDLGRREPDGSLTFLGTTTRMLKSAAENIFPAEVENCIEQHPAVREAAVIGVPNTRWAQDVKAVVVLEPDAGVSEQEIIDHCRPRIASYKKPKSVAFAAALPRTVSGKRDYDALDKEYGGGGYPGAATLGPGR", "note": "Compare with care: the assays were run in different laboratories. ± marks the error that the study gave.", "sequence of UniProt P05804 (whole entry, looked up)": "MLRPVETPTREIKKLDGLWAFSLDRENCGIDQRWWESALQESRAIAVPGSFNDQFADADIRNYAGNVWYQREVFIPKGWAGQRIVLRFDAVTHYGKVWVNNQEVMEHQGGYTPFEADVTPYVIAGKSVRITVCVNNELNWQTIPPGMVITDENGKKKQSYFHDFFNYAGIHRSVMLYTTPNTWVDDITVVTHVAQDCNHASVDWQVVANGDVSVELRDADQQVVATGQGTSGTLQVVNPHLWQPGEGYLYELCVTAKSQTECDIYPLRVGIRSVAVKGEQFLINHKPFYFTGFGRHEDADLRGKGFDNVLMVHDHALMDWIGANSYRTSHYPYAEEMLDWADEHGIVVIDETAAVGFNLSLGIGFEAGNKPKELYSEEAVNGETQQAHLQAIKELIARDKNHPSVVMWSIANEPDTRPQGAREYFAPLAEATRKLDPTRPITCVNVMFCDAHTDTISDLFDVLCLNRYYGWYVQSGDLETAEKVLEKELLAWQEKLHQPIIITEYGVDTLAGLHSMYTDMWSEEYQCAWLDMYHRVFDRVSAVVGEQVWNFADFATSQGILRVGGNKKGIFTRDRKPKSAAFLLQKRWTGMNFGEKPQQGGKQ", "sequence of UniProt P21729 (whole entry, looked up)": "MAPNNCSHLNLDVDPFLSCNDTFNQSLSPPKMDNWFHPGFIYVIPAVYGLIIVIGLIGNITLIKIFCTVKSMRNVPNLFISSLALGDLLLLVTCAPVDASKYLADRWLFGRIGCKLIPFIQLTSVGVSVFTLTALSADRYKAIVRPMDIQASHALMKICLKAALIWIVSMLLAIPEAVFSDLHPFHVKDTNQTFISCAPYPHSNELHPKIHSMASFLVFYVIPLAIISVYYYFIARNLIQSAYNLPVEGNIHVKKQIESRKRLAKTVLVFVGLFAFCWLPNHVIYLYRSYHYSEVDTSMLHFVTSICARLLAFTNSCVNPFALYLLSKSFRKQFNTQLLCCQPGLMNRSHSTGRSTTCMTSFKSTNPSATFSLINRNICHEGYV"}
{"Substance": "CCCNC(=O)[C@H](CC(C)C)NC(=O)[C@H](Cc1c[nH]cn1)NC(=O)CNC(=O)[C@@H](NC(=O)[C@H](C)NC(=O)[C@H](Cc1c[nH]c2ccccc12)NC(=O)[C@H](CCC(N)=O)NC(=O)[C@@H](Cc1ccccc1)NC(=O)CCCCCNC(=O)CN1CCN(CC(=O)O)CCN(CC(=O)O)CCN(CC(=O)O)CC1)C(C)C [indium-111 labelled]", "tested on": "Gastrin-releasing peptide receptor (Mus musculus, UniProt P21729)", "system": "CF-1 mice, large intestine", "setting": "intravenous, 0.185 MBq, 1 h", "quantity": "tissue uptake", "result": "0.44 ± 0.31 %ID/g"}
{"Substance": "N=C(N)NCCC[C@@H]1NC(=O)[C@H](CCCCNC(=O)CCOCCOCCOCCOCCNC(=O)CC[C@H](NC(=O)CCOCCOCCOCCOCCNC(=O)CC[C@H](NC(=O)CN2CCN(CC(=O)O)CCN(CC(=O)O)CCN(CC(=O)O)CC2)C(=O)NCCOCCOCCOCCOCCC(=O)N[C@@H](CCC(=O)NCCOCCOCCOCCOCCC(=O)NCCCC[C@@H]2NC(=O)[C@@H](Cc3ccccc3)NC(=O)[C@H](CC(=O)O)NC(=O)CNC(=O)[C@H](CCCNC(=N)N)NC2=O)C(=O)NCCOCCOCCOCCOCCC(=O)NCCCC[C@@H]2NC(=O)[C@@H](Cc3ccccc3)NC(=O)[C@H](CC(=O)O)NC(=O)CNC(=O)[C@H](CCCNC(=N)N)NC2=O)C(=O)NCCOCCOCCOCCOCCC(=O)NCCCC[C@@H]2NC(=O)[C@@H](Cc3ccccc3)NC(=O)[C@H](CC(=O)O)NC(=O)CNC(=O)[C@H](CCCNC(=N)N)NC2=O)NC(=O)[C@@H](Cc2ccccc2)NC(=O)[C@H](CC(=O)O)NC(=O)CNC1=O [indium-111 labelled]", "system": "female athymic nude mice, liver", "setting": "intravenous, 3 µCi, 4 h, U-87 MG glioma xenograft", "quantity": "tissue uptake", "result": "2.82 ± 0.54 %ID/g"}
{"Substance": "B1 (enzyme A497K)", "tested on": "C[C@@]12CCC[C@@](C)(C(=O)OP(=O)(O)OC[C@H]3O[C@@H](n4cnc5c(N)ncnc54)[C@H](O)[C@@H]3O)[C@H]1C[C@@H](O)[C@]13C[C@H]4C[C@H](O[C@@]4(C)C1)[C@@H]23", "test": "steady-state kinetics", "setting": "pH 7.8, 25 °C", "quantity": "Vmax", "result": "5.34 µmol/min"}
{"Substance": "O=C(O)C[C@H](NC(=O)[C@H](CO)NC(=O)[C@H](CO)NC(=O)[C@H](CC(=O)O)NC(=O)[C@H](CO)NC(=O)C1=CO[C@@H](O[C@@H]2O[C@H](CO)[C@@H](O)[C@H](O)[C@H]2O)[C@@H]2C(CO)=CC[C@H]12)C(=O)O", "tested on": "mouse primary osteoblasts", "test": "CCK-8", "setting": "up to 10 µM, 48 h", "quantity": "viability", "result": "~90%"}
{"Substance": "N=C(N)NCCC[C@@H]1NC(=O)[C@H](CCCCNC(=O)CNC(=O)CNC(=O)CNC(=O)CC[C@H](NC(=O)CCOCCOCCOCCOCCNC(=O)CC[C@H](NC(=O)CN2CCN(CC(=O)O)CCN(CC(=O)O)CCN(CC(=O)O)CC2)C(=O)NCCOCCOCCOCCOCCC(=O)N[C@@H](CCC(=O)NCC(=O)NCC(=O)NCC(=O)NCCCC[C@@H]2NC(=O)[C@@H](Cc3ccccc3)NC(=O)[C@H](CC(=O)O)NC(=O)CNC(=O)[C@H](CCCNC(=N)N)NC2=O)C(=O)NCC(=O)NCC(=O)NCC(=O)NCCCC[C@@H]2NC(=O)[C@@H](Cc3ccccc3)NC(=O)[C@H](CC(=O)O)NC(=O)CNC(=O)[C@H](CCCNC(=N)N)NC2=O)C(=O)NCC(=O)NCC(=O)NCC(=O)NCCCC[C@@H]2NC(=O)[C@@H](Cc3ccccc3)NC(=O)[C@H](CC(=O)O)NC(=O)CNC(=O)[C@H](CCCNC(=N)N)NC2=O)NC(=O)[C@@H](Cc2ccccc2)NC(=O)[C@H](CC(=O)O)NC(=O)CNC1=O [indium-111 labelled]", "system": "female athymic nude mice, intestine", "setting": "intravenous, 3 µCi, 0.5 h, U-87 MG glioma xenograft", "quantity": "tissue uptake", "result": "10.4 ± 1.52 %ID/g"}
{"Substance": "COc1ccc(C[C@H]2NC(=O)/C=C/C[C@@H]([C@H](C)[C@@H](OC(=O)CNC(=O)OCc3ccc(O[C@@H]4O[C@H](C(=O)O)[C@@H](O)[C@H](O)[C@H]4O)c(NC(=O)CCCc4cn(CCC(=O)NCCCC[C@@H]5NC(=O)[C@@H](Cc6ccccc6)NC(=O)[C@H](CC(=O)O)NC(=O)CNC(=O)[C@H](CCCNC(=N)N)NC5=O)nn4)c3)[C@@H](Cl)c3ccccc3)OC(=O)[C@H](CC(C)C)OC(=O)C(C)(C)CNC2=O)cc1Cl", "tested on": "Beta-glucuronidase (uidA, Escherichia coli, UniProt P05804)", "test": "substrate", "setting": "pH 7.0, 37 °C, added: enzyme 200 U/mL", "quantity": "half-life", "result": "15 min"}
{"Substance": "CCCC[C@H](NC(=O)CNC(=O)CNC(=O)c1ccc(NN)nc1)C(=O)N[C@H]1CC(=O)NCCCC[C@@H](C(N)=O)NC(=O)[C@H](Cc2c[nH]c3ccccc23)NC(=O)[C@H](CCCNC(=N)N)NC(=O)[C@@H](Cc2ccccc2)NC(=O)[C@H](Cc2c[nH]cn2)NC1=O [technetium-99m labelled]", "system": "C57 mouse, B16/F1 melanoma", "setting": "2 h, added: L-lysine", "scale": "relative to: tumour over lung", "quantity": "uptake ratio", "result": 82.9}
{"Substance": "C=Cc1c(C)c2cc3nc(c4c5[nH]c(cc6nc(cc1[nH]2)C(C)=C6CC)c(C)c5C(=O)C4)[C@@H](CCC(=O)NCC(=O)N1CCC[C@H]1C(=O)N[C@@H](CC(C)C)C(=O)NCC(=O)N[C@@H](Cc1ccccc1)C(=O)N[C@@H](CCCNC(=N)N)C(=O)N[C@H](C(=O)NCC(=O)N[C@@H](CCCCN)C(N)=O)C(C)C)[C@@H]3C", "tested on": "OA patient synovial fibroblasts", "test": "flow cytometry, refers to: cellular uptake", "setting": "1 µM, 24 h", "quantity": "fluorescent cells", "result": "92 ± 5%"}
{"Substance": "CC(C)C[C@H](NC(=O)[C@@H]1CCCN1C(=O)[C@H](CCCCN)NC(=O)[C@@H](N)CO)C(=O)N1CCC[C@H]1C(=O)N[C@@H](CCC(=O)O)C(=O)N[C@H](C(=O)N[C@H](C(=O)N[C@@H](CC(=O)O)C(=O)N[C@@H](CCC(=O)O)C(=O)N[C@@H](Cc1ccc(O)cc1)C(=O)N[C@@H](Cc1cn(CCOCCOCCOCCNC(=O)CCc2ccc(O)c(CN(CCN(CC(=O)O)Cc3cc(CCC(=O)NCCCC[C@H](NC(=O)N[C@@H](CCC(=O)O)C(=O)O)C(=O)O)ccc3O)CC(=O)O)c2)nn1)C(=O)O)[C@@H](C)O)C(C)C [gallium-68 labelled]", "system": "NMRI nu/nu mice, LNCaP tumour, adrenals", "setting": "10 MBq, high molar activity", "quantity": "standardized uptake value", "result": "1.1 g/g"}
